Measured values pooled from the literature.
Each numbered part is a random draw from the data of one study; scales do not carry over between parts.

Set 1 — method: RNA Bind-n-Seq; form: RNA; medium: in vitro; tested at: 200 nM; notes: whole 134-nt RNA, ends assumed; added: 150 mM KCl; relative to: input library; direction: higher = stronger binding
Target: Fragile X messenger ribonucleoprotein 1, C-terminal low-complexity region (Fmr1, Mus musculus, UniProt P35922)
Sequence | log2 enrichment
GGGAGUUCUACAGUCCGACGAUCUCAAGUCCUGUGCUACACAUCGUAUGUACCGAAUCGGAAAGGGAAAGGAAAGGGGAAAGUAUUAUGUUACGCCGUUCGGAUCUGCACUUCUGGAAUUCUCGGGUGUCAAGG | -0.55
GGGAGUUCUACAGUCCGACGAUCUCCUGUGCUACACAUCGUAUGUACCGAAUCGGCCCCCCGGGGCCCCCCGGGGCCCCCCGGAAAGUAUUAUGUUACGCCGUUCGGAUCUGCUGGAAUUCUCGGGUGUCAAGG | -0.498
GGGAGUUCUACAGUCCGACGAUCCAAGUCCUGUGCUACACAUCGUAUGUACCGAAUCGGUGGAAAAAAAGGAAAAAGGAAAGUAUUAUGUUACGCCGUUCGGAUCUGCACUUCUGGAAUUCUCGGGUGUCAAGG | -0.503
GGGAGUUCUACAGUCCGACGAUCUCAAGUCCUGUGCUACACAUCGUAUGUACCGAAUCGGUUUUUGGAAAAAGGUGGAAAGUAUUAUGUUACGCCGUUCGGAUCUGCACUUCCUGGAAUUCUCGGGUGUCAAGG | -0.506

Set 2 — method: universal PBM; form: double-stranded DNA, one strand shown; medium: in vitro; tested at: 600 nM; direction: higher = stronger binding
Target: Sal-like protein 4, full length isoform A (SALL4, Homo sapiens, UniProt Q9UJQ4, residues 1-1053)
Chain of UniProt Q9UJQ4 (whole entry, looked up): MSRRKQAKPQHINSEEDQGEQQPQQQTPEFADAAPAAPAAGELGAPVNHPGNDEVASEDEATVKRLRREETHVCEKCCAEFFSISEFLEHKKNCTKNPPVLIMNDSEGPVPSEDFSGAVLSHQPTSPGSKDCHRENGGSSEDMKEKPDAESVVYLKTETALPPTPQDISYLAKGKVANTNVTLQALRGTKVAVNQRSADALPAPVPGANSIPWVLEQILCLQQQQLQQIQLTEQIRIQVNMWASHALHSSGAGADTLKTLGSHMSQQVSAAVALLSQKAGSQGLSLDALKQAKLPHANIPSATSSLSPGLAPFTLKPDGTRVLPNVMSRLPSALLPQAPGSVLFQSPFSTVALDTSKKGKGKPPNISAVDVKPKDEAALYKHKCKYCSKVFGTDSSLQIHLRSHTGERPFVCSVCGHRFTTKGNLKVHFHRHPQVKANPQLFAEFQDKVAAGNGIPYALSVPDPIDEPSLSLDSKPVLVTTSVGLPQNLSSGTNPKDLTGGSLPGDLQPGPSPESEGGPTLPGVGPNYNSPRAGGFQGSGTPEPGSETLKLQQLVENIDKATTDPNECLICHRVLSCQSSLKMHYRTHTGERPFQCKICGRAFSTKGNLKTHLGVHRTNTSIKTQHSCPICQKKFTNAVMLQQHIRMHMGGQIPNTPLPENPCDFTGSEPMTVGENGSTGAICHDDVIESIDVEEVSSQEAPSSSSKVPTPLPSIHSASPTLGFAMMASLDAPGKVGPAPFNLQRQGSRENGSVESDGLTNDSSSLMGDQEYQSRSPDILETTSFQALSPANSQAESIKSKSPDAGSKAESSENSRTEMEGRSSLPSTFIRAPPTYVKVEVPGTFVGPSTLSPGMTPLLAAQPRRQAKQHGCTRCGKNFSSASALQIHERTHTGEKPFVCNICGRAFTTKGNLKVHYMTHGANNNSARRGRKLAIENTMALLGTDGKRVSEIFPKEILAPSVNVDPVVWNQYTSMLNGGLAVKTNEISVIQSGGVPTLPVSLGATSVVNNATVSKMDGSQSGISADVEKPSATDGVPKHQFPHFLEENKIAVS
Notes: 8-mer, flanks averaged, mean of replicates
Sequence | E-score
CCCTTTCG | 0.022
ACTGTTAG | 0.0196
ACCTCCAC | -0.142
AGCTACTC | -0.104
AAACCATG | 0.0176

Further values, each from its own experiment
Molecule | tested on | test | system | setting | scale | measurement | value
PSMA3 (Homo sapiens, UniProt P25788) | PSMA6 (Homo sapiens, UniProt P60900) | cross-linking MS |  | hits only |  | interaction screen | cross-linked
PhoQ, residues 284 288 289 292 302 303 SNSSNI | PhoP, residues 12 14 15 18 19 LHSVW (Escherichia coli, UniProt P23836) | Sort-seq, measured: YFP reporter | E. coli | PhoQ-PhoP variant library, added: 10 µM Mg2+ | relative to: high Mg2+ state, higher = stronger signaling | fold induction | 3.68
PHB1 (Homo sapiens, UniProt P35232) | OCIAD1 (Homo sapiens, UniProt Q9NX40) | cross-linking MS |  | hits only |  | interaction screen | cross-linked

Excerpt of the above (set 2):
Sequence | E-score
CCCTTTCG | 0.022
ACTGTTAG | 0.0196
